# Measured values from different studies.
# Compare with care: the assays were run in different laboratories. ± marks the error that the study gave.
Compound,assay,test system,conditions,tissue uptake [%ID/g]
N=C(N)NCc1ccc(C(=O)NCCCC[C@H](NC(=O)CCCCCCC(=O)NCCCC[C@H](NC(=O)N[C@@H](CCC(=O)O)C(=O)O)C(=O)O)C(=O)O)cc1[211At],,"SCID mouse, PC-3 xenografts, kidneys",1 h,86.5 ± 15.5
NC(=O)[C@@H](CCCCNC(=O)CNC(=O)CCC(=O)NCCc1c[nH]cn1)NC(=O)[C@@H](Cc1ccc(O)cc1)NC(=O)[C@@H](CCCCNC(=O)CNC(=O)CCC(=O)NCCc1c[nH]cn1)NC(=O)Cc1ccc(CN2CCN(CC(=O)O)CCN(CC(=O)O)CC2)cc1 [fluorine-18 labelled],,"tumour-bearing nude mice, kidney","intravenous, 1.04 MBq, 3 h, no pretargeting",2.27 ± 0.29
COc1cc2ncnc(Oc3cccc(N[11C](=O)Nc4cc(C(C)(C)C(F)(F)F)on4)c3)c2cc1OC,,"Balb/c nude mouse, female, A375 melanoma xenograft, spleen","6.6 MBq, 30 min",2.2 ± 0.07
CN[C@](C)(C[18F])C(=O)O,,"SCID mouse MDA-MB-468 xenograft, spleen","30 min, post injection",8.6 ± 1.9
N=C(N)NCc1ccc(C(=O)NCCCC[C@H](NC(=O)CCCCCCC(=O)NCCCC[C@H](NC(=O)N[C@@H](CCC(=O)O)C(=O)O)C(=O)O)C(=O)O)cc1[131I],,"SCID mouse, PC-3 xenografts, lungs",21 h,0.03 ± 0.01
CCCC[C@H](NC(=O)CCOCCOCCNC(=O)CN1CCN(CC(=O)O)CCN(CC(=O)O)CCN(CC(=O)O)CC1)C(=O)N[C@H]1CC(=O)NCCCC[C@@H](C(N)=O)NC(=O)[C@H](Cc2c[nH]c3ccccc23)NC(=O)[C@H](CCCNC(=N)N)NC(=O)[C@@H](Cc2ccccc2)NC(=O)[C@H](Cc2c[nH]cn2)NC1=O [gallium-68 labelled],,"C57BL/6J mice male B16-F10 tumour, heart","1 h post injection, unblocked",0.2 ± 0.1
CCNc1cc2[o+]c3cc(NCC)c(C)cc3c(-c3ccccc3C(=O)OCCOCC[18F])c2cc1C,,"rat, skin",120 min,0.16 ± 0.04
C=Cc1cc(O)cc2nc(-c3ccc(O)c([76Br])c3)oc12,,"female C57BL/6 mouse, blood","3 h, high dose, added: estradiol 20 µg blocking",0.19 ± 0.08
COc1cc(C(=O)NCCOCCOCCOCCNC(=O)c2ccc([18F])nc2)ccc1NC(=O)C1NC(CC(C)(C)C)C(C#N)(c2ccc(Cl)cc2F)C1c1cccc(Cl)c1F (centres unmarked),,"athymic male mice, SJSA-1 xenograft, large intestine",1 h,0.55 ± 0.36
N=C(N)NCc1ccc(C(=O)NCCCC[C@H](NC(=O)N[C@@H](CCC(=O)O)C(=O)O)C(=O)O)cc1[131I],,"SCID mouse, PC-3 xenografts, kidneys",14 h,19.1 ± 11.7
C[C@]12CC[C@H](OCC[18F])C[C@H]1CC[C@@H]1[C@@H]2CC[C@]2(C)[C@@H](c3ccc(=O)oc3)CC[C@]12O,micro-PET,"BALB/c nude mice, HepG2 xenograft, liver","intravenous, 7.4 MBq, 60 min",5.42 ± 1.27
N=C(N)NCc1ccc(C(=O)NCCCC[C@H](NC(=O)N[C@@H](CCC(=O)O)C(=O)O)C(=O)O)cc1[211At],,"SCID mouse, PC-3 xenografts, liver",21 h,0.33 ± 0.06
O=C(O)CC[C@H](NC(=O)O[C@@H](CCCCNC(=O)c1ccc([18F])cc1)C(=O)O)C(=O)O,,"mouse, PC-3 PIP/flu xenografts, heart",60 min,0.25 ± 0.08
"O=C(c1ccc(F)cc1)C1CCN(C2Cc3c(cccc3OCC[18F])CC2O)CC1 (single isomer, unassigned; (-))",,"Sprague-Dawley rat, male, pancreas","intravenous, dose not given, 120 min",0.819 ± 0.367

# A few entries again:
Compound,assay,test system,conditions,tissue uptake [%ID/g]
COc1cc2ncnc(Oc3cccc(N[11C](=O)Nc4cc(C(C)(C)C(F)(F)F)on4)c3)c2cc1OC,,"Balb/c nude mouse, female, A375 melanoma xenograft, spleen","6.6 MBq, 30 min",2.2 ± 0.07
